Experimental data gathered from unrelated publications.
Protocols differ between the studies behind these lines.
UniProt Q13011, sequence (whole entry, looked up): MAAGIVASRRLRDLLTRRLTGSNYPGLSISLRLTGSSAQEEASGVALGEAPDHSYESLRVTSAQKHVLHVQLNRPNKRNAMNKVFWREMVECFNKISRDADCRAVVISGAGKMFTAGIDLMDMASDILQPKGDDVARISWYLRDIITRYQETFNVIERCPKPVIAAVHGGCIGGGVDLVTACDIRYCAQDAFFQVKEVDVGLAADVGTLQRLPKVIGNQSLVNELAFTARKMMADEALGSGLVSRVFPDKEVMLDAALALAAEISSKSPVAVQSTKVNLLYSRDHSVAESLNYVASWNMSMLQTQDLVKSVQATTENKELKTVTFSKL

With `C=CC[N+]1([C@H]2C[C@H]3[C@@H]4CC[C@H]5C[C@H](O)[C@@H](N6CCOCC6)C[C@]5(C)[C@H]4CC[C@]3(C)[C@H]2OC(C)=O)CCCC1` the AUC(0-t) was 32.9 ng·h/mL (Sprague Dawley rat, plasma; intravenous, dose not given, added: sugammadex 5 mg/kg).
The AUC(0-t) of `CC(=O)c1c(C)c2cnc(Nc3ccc(C4CCN(CCS(C)(=O)=O)CC4)cn3)nc2n(C2CCCC2)c1=O` is reported as 1030 ng·h/mL (human, dose-escalation trial, plasma; oral, 25 mg twice daily, day 21, multiple doses).
`Cc1[nH]c(C)c(S(=O)(=O)Nc2ccc(S(F)(F)(F)(F)F)cc2)c1C(=O)N1CCC(F)(F)C1` gave an AUC(0-t) of 190000 ng·h/g (mouse, plasma; intraperitoneal, 40 mg/kg).
With `C[C@H]1CN(c2n[nH]c3nc(N[C@H]4CC[C@H](NS(=O)(=O)CCC(F)(F)F)CC4)ncc23)CCO1` the remaining binding was 1.01 (Delta(3,5)-Delta(2,4)-dienoyl-CoA isomerase, mitochondrial (Homo sapiens, UniProt Q13011); Kinobeads competition, measured: ECH1; 0.16 µM, unit not given; reference: vehicle).
The AUC(0-t) of `Nc1ccc2cc3ccc(N)cc3nc2c1` is reported as 545 ng·h/mL (male CD-1 mouse, plasma; oral, 100 mg/kg).
`CO[C@H]1C[C@@H]2CC[C@@H](C)[C@@](O)(O2)C(=O)C(=O)N2CCCC[C@H]2C(=O)O[C@H]([C@H](C)C[C@@H]2CC[C@@H](OC(=O)NCCOCCOCCOCCOCCOCCOCCOCCOCCC(=O)N3CCc4cc(Cn5nc(-c6ccc7oc(N)nc7c6)c6c(N)ncnc65)ccc4C3)[C@H](OC)C2)C[C@@H](O)[C@H](C)/C=C(\C)[C@@H](O)[C@@H](OC)C(=O)[C@H](C)C[C@H](C)/C=C/C=C/C=C/1C`: “incidence of Anemia TEAE” 40% (patients with advanced solid tumours; intravenous, 1.6 mg/3 mg weekly, grade ≥3).
With `NC(=O)c1cccc(-c2cc(OC(=O)NC3CCCCC3)ccc2O)c1` the AUC(0-t) was 4860 ng·h/mL (mouse, plasma; intravenous, 10 mg/kg, 0 to 24 h).
With `COc1cccc2c1CCCC2CCCN1CCN(C2CCCCC2)CC1` (stereo not shown) the AUC(0-t) was 698 ng·h/mL (CD-1 mouse, male, plasma; intraperitoneal, 30 mg/kg).
`O=c1ccc2ccccc2o1` — result for “probability of response”: 0% (HepG2; measured: cell count; concentration not given, 1 h, SRXN1 Nrf2 oxidative stress panel).
For `CC/C(=C(\c1ccccc1)c1ccc(OCCN(C)C)cc1)c1ccccc1`, the AUC(0-t) was 67.2 ng·h/mL (CD-1 mouse, male, plasma; intraperitoneal, 1 mg/kg).
For `Cc1ccccc1C(=O)NN=Cc1ccc(O)c(Br)c1`, the AUC(0-t) was 174 ng·h/mL (C3H/HeN mouse IN model, plasma; intraperitoneal, 0.8 mg/kg).
The AUC(0-t) of `COc1cc2c(cc1OC)CN(CCc1ccc(NC(=O)c3cccc4c(=O)c5cccc(OC)c5[nH]c34)cc1)CC2` is reported as 965 ng·h/mL (CD-1 mouse, male, plasma; intraperitoneal, 1 mg/kg).
`COc1cc2c(Oc3ccc4[nH]c(C)cc4c3F)ccnc2cc1OCC1(N)CC1` — result for “grade 3 Nausea”: 0% (paediatric recurrent refractory sarcoma; 8 mg).

For quick reference, copied from above:
With `COc1cccc2c1CCCC2CCCN1CCN(C2CCCCC2)CC1` (stereo not shown) the AUC(0-t) was 698 ng·h/mL (CD-1 mouse, male, plasma; intraperitoneal, 30 mg/kg).
`O=c1ccc2ccccc2o1` — result for “probability of response”: 0% (HepG2; measured: cell count; concentration not given, 1 h, SRXN1 Nrf2 oxidative stress panel).
